Published values pooled from the literature.
Compare with care: the assays were run in different laboratories. ± gives the spread as reported.
UniProt Q8TF76, sequence (whole entry, looked up): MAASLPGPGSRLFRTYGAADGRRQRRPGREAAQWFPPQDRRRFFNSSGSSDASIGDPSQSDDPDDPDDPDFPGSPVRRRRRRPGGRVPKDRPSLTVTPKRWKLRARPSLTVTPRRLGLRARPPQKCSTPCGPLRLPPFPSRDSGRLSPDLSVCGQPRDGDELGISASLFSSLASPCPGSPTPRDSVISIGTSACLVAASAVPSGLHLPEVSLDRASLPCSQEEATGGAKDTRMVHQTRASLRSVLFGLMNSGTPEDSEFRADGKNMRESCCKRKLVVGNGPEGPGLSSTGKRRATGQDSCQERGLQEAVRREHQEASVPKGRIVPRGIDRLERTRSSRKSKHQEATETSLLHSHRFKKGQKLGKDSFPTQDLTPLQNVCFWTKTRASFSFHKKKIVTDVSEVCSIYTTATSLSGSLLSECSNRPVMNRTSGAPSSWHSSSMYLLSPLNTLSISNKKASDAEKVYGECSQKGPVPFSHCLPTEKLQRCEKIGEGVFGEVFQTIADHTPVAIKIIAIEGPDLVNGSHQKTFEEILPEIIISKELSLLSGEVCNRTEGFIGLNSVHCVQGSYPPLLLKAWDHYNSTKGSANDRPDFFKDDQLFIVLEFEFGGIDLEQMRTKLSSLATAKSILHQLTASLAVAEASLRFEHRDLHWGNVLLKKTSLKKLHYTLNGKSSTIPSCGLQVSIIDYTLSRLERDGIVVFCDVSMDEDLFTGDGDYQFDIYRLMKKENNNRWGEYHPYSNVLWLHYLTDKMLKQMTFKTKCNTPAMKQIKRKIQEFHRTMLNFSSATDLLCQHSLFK

Structure (SMILES) | target or system | assay | test system | setting | scale | endpoint | result
CC[C@H](C)[C@H](NC(=O)[C@H](Cc1ccc(O)cc1)NC(=O)[C@@H](NC(=O)[C@H](CCCNC(=N)N)NC(=O)[C@@H](N)CC(=O)O)C(C)C)C(=O)N[C@@H](Cc1c[nH]cn1)C(=O)N1CCC[C@H]1C(=O)O |  |  | Beagle dogs, both sexes, plasma | subcutaneous, 10 mg/kg/day, day 27 |  | half-life | 0.462 ± 0.067 h
CC1(C)C(=O)N(c2ccc(C#N)c(C(F)(F)F)c2)C(=S)N1c1ccc(C(N)=O)c(F)c1 |  |  | male human, plasma | oral, 80 mg, single dose, fasted |  | half-life | 189 h
Cn1nc(NS(C)(=O)=O)c2c(Cl)ccc(-n3c([C@H](Cc4cc(F)cc(F)c4)NC(=O)Cn4nc(C(F)F)c5c4C(F)(F)[C@@H]4C[C@H]54)nc4nc(OCCC(F)(F)F)ccc4c3=O)c21 |  |  | human, plasma | oral, 125 mg single dose, powder in bottle, geometric mean |  | half-life | 54.4 h
CS(C)(=O)=Nc1ccc(-c2ccc(-c3nc4cc(O[C@@H]5CO[C@H]6[C@@H]5OC[C@H]6O)[nH]c4cc3F)cc2)cc1 | HASPIN (Homo sapiens, UniProt Q8TF76) | enzyme activity, inhibitor |  | 10 µM |  | inhibition | -12%
Cc1nc2cccc(OCC(C)(C)C(=O)NC(C)C)c2c(N)c1C(=O)[O-].[Na+] | Salmonella typhimurium |  | TA100 | 0.80 mg per plate, with S9, plate incorporation |  | revertant colonies per plate | 115 ± 9
CC(C)N1CCCCC1C(=O)NC(Cc1ccc(-c2ccccc2)cc1)B(O)O (stereo not shown) |  |  | rat, plasma | intravenous, 1 mg/kg |  | half-life | 5.3 h
CC(C)[C@H]1NC(=O)[C@H](Cc2ccccc2)NC(=O)[C@@H](C(C)C)NC(=O)[C@@H](C)NC(=O)[C@H](CO)NC(=O)[C@@H](Cc2c(-c3ccc(-c4ccc5ccccc5c4)cc3)[nH]c3ccccc23)NC(=O)[C@@H](CO)NC1=O |  |  | female Sprague-Dawley rat, plasma | intraperitoneal, 20 mg/kg, single dose |  | half-life | 0.6 h
N=C(N)NCCC[C@H](NC(=O)[C@@H]1CCCN1C(=O)[C@@H]1CSCSC[C@H](N)C(=O)N[C@@H](Cc2ccc(O)cc2)C(=O)N[C@@H](Cc2ccccc2)C(=O)N[C@@H](CCC(N)=O)C(=O)N[C@@H](CC(N)=O)C(=O)N1)C(=O)NCC(N)=O |  | chemical stability | male human, serum | 490 µM |  | half-life | 1.5 h
CC1(C)C(=O)N(c2ccc(C#N)c(C(F)(F)F)c2)C(=S)N1c1ccc(C(=O)O)c(F)c1 |  |  | male human, plasma | oral, 40 mg, single dose, fasted |  | half-life | 225 h
O=C1NC2(CC2)COc2ncc(F)cc2[C@H]2COCCN2c2ccn3ncc1c3n2 |  |  | Sprague-Dawley rat, male, serum | oral, 2.5 mg/kg/day, end of recovery, 4-week subacute toxicity |  | serum triglycerides | 0.54 ± 0.21 mmol/L
COc1ccccc1-c1n[nH]c2nc(NC3CCN(C(=O)Cc4ccc(F)cc4F)CC3)ncc12 |  | bead binding, competition bead pull-down, item: LINJ.35.1820 | Leishmania donovani extract | 10 µM | baseline: vehicle | relative abundance | 1.14
CN1CCCCC1C(=O)NC(Cc1ccc(-c2ccccc2)cc1)B(O)O (stereo not shown) |  |  | rat, plasma | oral, 1 mg/kg |  | half-life | 4.8 h
CCN(CC)CCOc1ccc(-c2nnn(Cc3ccc(OC)cc3)c2N)cc1 |  | metabolic stability | monkey, plasma |  |  | half-life | > 6.21 h

Excerpt of the above:
Structure (SMILES) | target or system | assay | test system | setting | scale | endpoint | result
Cn1nc(NS(C)(=O)=O)c2c(Cl)ccc(-n3c([C@H](Cc4cc(F)cc(F)c4)NC(=O)Cn4nc(C(F)F)c5c4C(F)(F)[C@@H]4C[C@H]54)nc4nc(OCCC(F)(F)F)ccc4c3=O)c21 |  |  | human, plasma | oral, 125 mg single dose, powder in bottle, geometric mean |  | half-life | 54.4 h
CS(C)(=O)=Nc1ccc(-c2ccc(-c3nc4cc(O[C@@H]5CO[C@H]6[C@@H]5OC[C@H]6O)[nH]c4cc3F)cc2)cc1 | HASPIN (Homo sapiens, UniProt Q8TF76) | enzyme activity, inhibitor |  | 10 µM |  | inhibition | -12%
